Measurements pooled from the literature.
Every numbered part comes from another study and shows a few of its results, in no order. Positions count from the first letter of the parent shown.

Study 1
Target: Ras GTPase-activating protein-binding protein 1, full length (G3BP1, Homo sapiens, UniProt Q13283)
Sequence of UniProt Q13283 (whole entry, looked up): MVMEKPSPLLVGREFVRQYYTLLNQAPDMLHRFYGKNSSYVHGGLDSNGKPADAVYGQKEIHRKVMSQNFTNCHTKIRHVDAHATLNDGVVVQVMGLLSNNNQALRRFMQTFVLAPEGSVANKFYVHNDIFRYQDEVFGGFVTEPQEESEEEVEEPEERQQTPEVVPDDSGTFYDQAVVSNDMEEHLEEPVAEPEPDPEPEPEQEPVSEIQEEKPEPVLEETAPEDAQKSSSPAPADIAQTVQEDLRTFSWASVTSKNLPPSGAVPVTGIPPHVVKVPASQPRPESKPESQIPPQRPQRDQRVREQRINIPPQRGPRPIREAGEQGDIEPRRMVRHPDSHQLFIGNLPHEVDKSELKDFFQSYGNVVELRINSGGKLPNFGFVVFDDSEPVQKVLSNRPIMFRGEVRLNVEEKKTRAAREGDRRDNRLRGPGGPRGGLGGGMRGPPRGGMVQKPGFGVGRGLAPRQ
Technique: RNA Bind-n-Seq
Molecule type: RNA
Medium: in vitro
Concentration: 200 nM
Notes: whole 134-nt RNA, ends assumed
With: 150 mM LiCl
Baseline: input library
Direction: higher = stronger binding
Library: 7-deaza-guanosine replaces G
| Strand | log2 enrichment |
| --- | --- |
| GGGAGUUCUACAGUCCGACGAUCAGUCCUGUGCUACACAUCGUAUGUACCGAAUCGGAAAAAGGGGAAAAAGGAAAAAGGAAAGUAUUAUGUUACGCCGUUCGGAUCUGCACUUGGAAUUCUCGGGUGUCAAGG | -1.05 |
| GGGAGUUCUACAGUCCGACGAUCUCCUGUGCUACACAUCGUAUGUACCGAAUCGGGCCCCCCGGCCCCCCGGGCCCCCCGGGAAAGUAUUAUGUUACGCCGUUCGGAUCUGCAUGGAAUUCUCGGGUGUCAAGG | -0.284 |
| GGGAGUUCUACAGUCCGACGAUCACAAAGCAGGUGGGCAUCUUUGGGAAGUGGGGCAAGGGGGGGAUAGGGAGGGGGGUAACACUUUGGGAACAGGUGGUCCCAGGUCGUUUCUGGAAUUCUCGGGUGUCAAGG | 0.176 |
| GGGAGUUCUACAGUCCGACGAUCAGUCCUGUGCUACACAUCGUAUGUACCGAAUCGGAAAAAAAGGAAAGGAAAAAAAGGAAAGUAUUAUGUUACGCCGUUCGGAUCUGCACUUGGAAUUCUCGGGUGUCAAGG | -1.17 |
| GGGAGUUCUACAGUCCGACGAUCCAAGUCCUGUGCUACACAUCGUAUGUACCGAAUCGGAGGAAAAAAAGGUUUUUGGAAAGUAUUAUGUUACGCCGUUCGGAUCUGCACUUCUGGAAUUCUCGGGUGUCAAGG | -1.02 |
| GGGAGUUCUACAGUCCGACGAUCUUUUAGGAAGCUGCAGUAAAGGAAGAUGAAGAAGAAGUUUCAGAUAAGGGCAGUGAUUCUGAAGAAGAAGAAACCAAUAGAGAUUCCCAAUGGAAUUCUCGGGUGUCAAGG | -2.01 |
| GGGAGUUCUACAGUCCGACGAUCGUCCUGUGCUACACAUCGUAUGUACCGAAUCGGGGCCCCCGGGCCCCCGGCCCCCGGGAAAGUAUUAUGUUACGCCGUUCGGAUCUGCACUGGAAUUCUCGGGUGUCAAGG | -1.71 |
| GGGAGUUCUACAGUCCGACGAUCUAACUUUAGAGGAGGAUCUGAUGGAUAUGGCAGUGGACGUGGAUUUGGGGAUGGCUAUAAUGGGUAUGGGGGAGGACCUGGAGGUGGCAAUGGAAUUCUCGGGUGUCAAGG | -0.112 |

Study 2
Target: CCNE2, cyclin fold, Cln2 fusion (human)
Technique: yeast growth competition, sequencing
Medium: yeast
Notes: strong parent motif
Baseline: not given
Direction: higher = stronger binding
Starting sequence: RBL2 docking peptide (human); STTRRRLFVENDS
| Variant | normalised enrichment score |
| --- | --- |
| R4T | 0.767 |
| T2Q | 4.44 |
| N11M | 4.52 |
| S13H | 4.54 |
| S13E | 4.81 |
| D12W | 2.94 |
| R5M | 0.417 |
| R5T | 1.84 |
| R4E | -0.161 |
| T2F | 3.79 |
| E10M | 2.72 |
| F8M | 0.0179 |
| N11E | 4.88 |
| F8Y | 0.765 |
| T3D | 0.039 |

Study 3
Target: Interferon regulatory factor 5, full length, phosphomimetic (IRF5, Homo sapiens, UniProt Q13568-2, residues 1-514, K96S/S451D/S453D/S456D/S462D)
Technique: protein-binding microarray
Molecule type: double-stranded DNA, one strand shown
Medium: in vitro
Concentration: 250 nM
Notes: 60-bp whole probe
With: salmon DNA 0.4 mg/ml
Baseline: random background probes
Direction: higher = stronger binding
Constant ends, left off below: GCCTAGCAC … GTCTTGATTCGCTTGACGCTGCTG
| Strand | log fluorescence [z-score] |
| --- | --- |
| GACGGTTACGGTTTCGGGACGTGCTAG | 2.5 |
| TTAGGTCTCGGACTCGGTTAGTGCTAG | -0.199 |
| TTAGATTTCGGGACTGGGTTAGTGCTA | 2.28 |
| GACGGTGTCGGTATCGGGACGTGCTAG | 0.845 |
| TCAAGACTTGATTTTGGACTGTGCTAG | -0.0613 |
| GACGATCTCAGTCTCGGGACGTGCTAG | -0.109 |
| GACGAACTGAGTTACGAGACGTGCTAG | 0.0265 |
| ATCTCTGTCCGTGCTCAGCTCGTGCTA | -0.216 |
| GACGGTTTGCTTATCCTGACGTGCTAG | -0.12 |
| TTAGGACTGGACTTTCGGTGAGTGCTA | 8.1 |
| TCAGCTCTGATGTTGGGACTGTGCTAG | -0.484 |
| TCAAAACTCGTGTTTTTCACTGTGCTA | 1.03 |
| TCAATACTGATTTCCACACTGTGCTAG | 0.453 |

Study 4
Target: RNA binding protein fox-1 homolog 2, RRM domain, GST-SBP tag (RBFOX2, Homo sapiens, UniProt O43251-10, residues 100-194)
Technique: RNA Bind-n-Seq
Molecule type: RNA
Medium: in vitro
Concentration: 365 nM
Notes: natural RNA segment, single round, ends assumed
Baseline: no-protein control
Direction: higher = stronger binding
Residues (chain): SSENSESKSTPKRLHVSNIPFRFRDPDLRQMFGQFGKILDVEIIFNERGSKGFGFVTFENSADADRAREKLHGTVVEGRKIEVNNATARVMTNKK
| Strand | RBNS enrichment (R) |
| --- | --- |
| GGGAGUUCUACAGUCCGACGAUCACCCAGCAAGUGAAUCCAAUCUUCAGCAAUUCCCAUAGACCCAAGAAGCCUACUUUCCUGAGGCAGCAGCACUGCCACUGGAGCCUCCCGACAGGGCGUGCCUCUCCCACUGGAAUUCUCGGGUGCCAA | 0.335 |
| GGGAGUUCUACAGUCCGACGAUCUUAAGAACAGUCACUCUUGAUUGUUUUACUUUUUAUUUUUAAAUUAAAGAUUGGGAAUGCGUGUGAGAGUAUGCAUAAGCAUGGCAGGAAGAGAGGGGGGAGAGAGAAAGUGGAAUUCUCGGGUGCCAA | 2.22 |
| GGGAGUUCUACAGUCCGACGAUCAAUUUCUAGCUGUCCUUGCAGAAUUAUAGUGAAUACCAAAAUGGGGUUUUGCCCCAGGAGGCUCCUACCAGUUUCUGCUUUCCAGUUGCAGAGUUUGGGGGGUUAUUCAUUGGAAUUCUCGGGUGCCAA | 0.321 |
| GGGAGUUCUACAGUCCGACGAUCAUAAGCCUCAGGCCCUGGGAAACCUCCCGACCCCUGCACCUUCGUUGGAGCCCCUGCAUCCCCUGGGUCCAGCCCCCUCUGCAUUUACACAGAUUUGAGUCAGAACUGGAUGGAAUUCUCGGGUGCCAA | 0.934 |
| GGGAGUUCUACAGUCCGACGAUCACUGCUGUCUGAGCACUAGAAAUUUCUAAUGGAAAGAGGCCUCUGAAUGGCUAAGGGAACAUCUGGAAAGGAAGGAAAAUGAGCCCUAAAGGUUUUUUGGUUGCUUGUUUUGGAAUUCUCGGGUGCCAA | 0.479 |
| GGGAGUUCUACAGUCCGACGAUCUAAAAACUUGUCCUUUUCCUUAAAUCAAAGUAGGACUCGAGUCCUCGUUUUUCACGCUGGCUUUGUUUCAGAGGUAUACUGACUCCAGUGGUGUCAGGAUGAGGUGGCCCUGGAAUUCUCGGGUGCCAA | 0.307 |
| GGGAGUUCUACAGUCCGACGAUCAUAGCCUCCAUGUGCUGCCCUUCUGCCCCAGAUCGUUUGUACAGAAAUCAUGCUGCCAUGGGUCACACUGGCCUCUCAGGCCCACCCGUCACGGGGAACACACAGCGUUAUGGAAUUCUCGGGUGCCAA | 0.383 |
| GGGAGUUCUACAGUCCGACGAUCUGUACUAUAGGAGUGAUAAUUGCAGCUAUUGCAAUAGUAGUAAUUGUUAAAUGGAUACUAAUGAAUAGCAUAGCAUAGUGGGUAAGAGUUUAUAUAGCACAGGCUCUAGAUGGAAUUCUCGGGUGCCAA | 0.817 |
| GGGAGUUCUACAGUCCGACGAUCAGCACCACAGUGACCUAAGCGGCUCACUUCUGAGCCUCCUCUUCAGUUUCCUGGGGGGGGGGGGGUUCCUCCUGACUUCGUUCUGUUCUGUCUUCACUUCCUCUUCCAUCUGGAAUUCUCGGGUGCCAA | 0.172 |
| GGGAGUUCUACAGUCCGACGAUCGCUUCUGUUUUGCCAGUUAUUUCCGACAGUACUAUCAGAAGGAAGUGGUCAGCAGCUGUUCCUAGCCUGUGAGCCGAAAGCAAAUCAGAAUUUAUAAAUCACAUCUCAUCUGGAAUUCUCGGGUGCCAA | 0.44 |
| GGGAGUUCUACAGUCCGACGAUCUCCUCCUUCCCCAGGACCUGAGCUCCCAGCAUCUGCAGACGACCCCCGCAGCCUUUCCCUCGGACCCCCCUCGAAGCCCCCUGGACUGAUUCCCACCCACGACUCACAGGUGGAAUUCUCGGGUGCCAA | 1.44 |
| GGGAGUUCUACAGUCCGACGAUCCUUUCUCAAAGAAAUAUUAAGCAUGUUUUGUUGCUCAGUGUUUUUGUGAAUUGCUUGGUUGUAAUUAAAUUCUGAGCCUGAUAUUGAUAUGGUUUUAAGAAGCAGUUGUAUGGAAUUCUCGGGUGCCAA | 17.9 |

Some of these lines once more (study 3):
| Strand | log fluorescence [z-score] |
| --- | --- |
| ATCTCTGTCCGTGCTCAGCTCGTGCTA | -0.216 |
| GACGGTTTGCTTATCCTGACGTGCTAG | -0.12 |
| TTAGGACTGGACTTTCGGTGAGTGCTA | 8.1 |
| TCAGCTCTGATGTTGGGACTGTGCTAG | -0.484 |
| TCAAAACTCGTGTTTTTCACTGTGCTA | 1.03 |
